Assay results pooled from the literature.
Compare with care: the assays were run in different laboratories. ± marks the error that the study gave.

Structure (SMILES) | target or system | assay | test system | conditions | quantity | result
CCCC[C@H](NC(=O)COCCOCCNC(=O)CN1CCN(CC(=O)O)CCN(CC(=O)O)CC1)C(=O)N[C@H]1CC(=O)NCCCC[C@@H](C(N)=O)NC(=O)[C@H](Cc2c[nH]c3ccccc23)NC(=O)[C@H](CCCNC(=N)N)NC(=O)[C@@H](Cc2ccccc2)NC(=O)[C@H](Cc2c[nH]cn2)NC1=O [copper-64 labelled] | – | – | C57 mice, stomach | intravenous, 0.37 MBq, 24 h | tissue uptake | 0.32 ± 0.15 %ID/g
CCCC[C@H](NC(=O)CNC(=O)CNC(=O)CN1CCN(CC(=O)O)CCN(CC(=O)O)CCN(CC(=O)O)CC1)C(=O)N[C@H]1CC(=O)NCCCC[C@@H](C(N)=O)NC(=O)[C@H](Cc2c[nH]c3ccccc23)NC(=O)[C@H](CCCNC(=N)N)NC(=O)[C@@H](Cc2ccccc2)NC(=O)[C@H](Cc2c[nH]cn2)NC1=O [lutetium-177 labelled] | – | – | C57 mouse, female, bone | intravenous, 0.037 MBq, 0.5 h | tissue uptake | 0.95 ± 0.33 %ID/g
COc1cc(CNC(=O)C[C@H](C)CCC=C(C)C)ccc1OCc1cn(-c2ccc(Cl)cc2Cl)nn1 | MDA-MB-468 breast cancer cells | SRB | – | 10 µM, 48 h | growth percent | 50.4%
CC(C)C[C@H](NC(=O)[C@H](Cc1ccc(O)cc1)NC(=O)[C@@H](CCCNC(=N)N)NC(=O)[C@@H](CO)NC(=O)[C@H](Cc1ccccc1)NC(=O)[C@H](CC1CCCCC1)NC(=O)[C@H](CC(=O)O)NC(=O)CN1CCCN2CCN(CCCN(CC(=O)O)CC2)CC1)C(=O)N[C@@H](Cc1c[nH]c2ccccc12)C(=O)N[C@@H](CO)C(=O)O [copper-64 labelled] | – | – | female NMRI nude mice, blood | 22 h p.i. | tissue uptake | 0.4 ± 0.1 %ID/g
N=C(N)NCCC[C@@H]1NC(=O)[C@H](CCCCNC(=O)CNC(=O)CNC(=O)CNC(=O)CC[C@H](NC(=O)CNC(=O)CNC(=O)CNC(=O)CN2CCN(CC(=O)O)CCN(CC(=O)O)CCN(CC(=O)O)CC2)C(=O)NCC(=O)NCC(=O)NCC(=O)NCCCC[C@@H]2NC(=O)[C@@H](Cc3ccccc3)NC(=O)[C@H](CC(=O)O)NC(=O)CNC(=O)[C@H](CCCNC(=N)N)NC2=O)NC(=O)[C@@H](Cc2ccccc2)NC(=O)[C@H](CC(=O)O)NC(=O)CNC1=O [indium-111 labelled] | – | – | female athymic nu/nu mice, U87MG tumour | intravenous, 111 kBq, 0.5 h | tissue uptake | 10.2 ± 3.61 %ID/g
CSCC[C@H](NC(=O)[C@H](CC(C)C)NC(=O)[C@H](Cc1c[nH]cn1)NC(=O)CNC(=O)[C@@H](NC(=O)[C@H](C)NC(=O)[C@H](Cc1c[nH]c2ccccc12)NC(=O)[C@H](CCC(N)=O)NC(=O)CCOCCOCCOCCOCCNC(=O)CN1CCN(CC(=O)O)CCN(CC(=O)O)CCN(CC(=O)O)CC1)C(C)C)C(N)=O [indium-111 labelled] | – | – | Swiss nu/nu mouse, male, PC-3 tumour xenograft, colon | intravenous, 10 pmol, 1 h | tissue uptake | 2.9 ± 1.5 %ID/g
CCCC[C@H](NC(=O)CCCCCCCNC(=O)CN1CCN(CC(=O)O)CCN(CC(=O)O)CC1)C(=O)N[C@H]1CC(=O)NCCCC[C@@H](C(N)=O)NC(=O)[C@H](Cc2c[nH]c3ccccc23)NC(=O)[C@H](CCCNC(=N)N)NC(=O)[C@@H](Cc2ccccc2)NC(=O)[C@H](Cc2c[nH]cn2)NC1=O [copper-64 labelled] | – | – | C57 mice, liver | intravenous, 0.37 MBq, 4 h | tissue uptake | 0.95 ± 0.21 %ID/g
COc1cc(CNC(=O)C[C@H](C)CCC=C(C)C)ccc1OCc1cn(-c2ccc(F)cc2)nn1 | Malme-3M melanoma cells | SRB | – | 10 µM, 48 h | growth percent | 96%
N=C(N)NCCC[C@@H]1NC(=O)[C@H](CCCCNC(=O)CNC(=O)CNC(=O)CNC(=O)CC[C@H](NC(=O)CNC(=O)CNC(=O)CNC(=O)CC[C@H](NC(=O)CN2CCN(CC(=O)O)CCN(CC(=O)O)CCN(CC(=O)O)CC2)C(=O)NCC(=O)NCC(=O)NCC(=O)N[C@@H](CCC(=O)NCC(=O)NCC(=O)NCC(=O)NCCCC[C@@H]2NC(=O)[C@@H](Cc3ccccc3)NC(=O)[C@H](CC(=O)O)NC(=O)CNC(=O)[C@H](CCCNC(=N)N)NC2=O)C(=O)NCC(=O)NCC(=O)NCC(=O)NCCCC[C@@H]2NC(=O)[C@@H](Cc3ccccc3)NC(=O)[C@H](CC(=O)O)NC(=O)CNC(=O)[C@H](CCCNC(=N)N)NC2=O)C(=O)NCC(=O)NCC(=O)NCC(=O)NCCCC[C@@H]2NC(=O)[C@@H](Cc3ccccc3)NC(=O)[C@H](CC(=O)O)NC(=O)CNC(=O)[C@H](CCCNC(=N)N)NC2=O)NC(=O)[C@@H](Cc2ccccc2)NC(=O)[C@H](CC(=O)O)NC(=O)CNC1=O [indium-111 labelled] | – | – | female athymic nu/nu mice, muscle | intravenous, 111 kBq, 24 h | tissue uptake | 0.93 ± 0.54 %ID/g
N=C(N)NCCC[C@@H]1NC(=O)[C@H](CCCCNC(=O)CCOCCOCCOCCOCCNC(=O)CC[C@H](NC(=O)CCOCCOCCOCCOCCNC(=O)CN2CCN(CC(=O)O)CCN(CC(=O)O)CCN(CC(=O)O)CC2)C(=O)NCCOCCOCCOCCOCCC(=O)NCCCC[C@@H]2NC(=O)[C@@H](Cc3ccccc3)NC(=O)[C@H](CC(=O)O)NC(=O)CNC(=O)[C@H](CCCNC(=N)N)NC2=O)NC(=O)[C@@H](Cc2ccccc2)NC(=O)[C@H](CC(=O)O)NC(=O)CNC1=O [copper-64 labelled] | – | – | athymic nu/nu mouse, female, muscle | intravenous, 0.5 h | tissue uptake | 1.28 ± 0.11 %ID/g
N=C(N)NCCC[C@@H]1NC(=O)[C@H](CCCCNC(=O)CC[C@H](NC(=O)CC[C@H](NC(=O)CN2CCN(CC(=O)O)CCN(CC(=O)O)CCN(CC(=O)O)CC2)C(=O)N[C@@H](CCC(=O)NCCCC[C@@H]2NC(=O)[C@@H](Cc3ccccc3)NC(=O)[C@H](CC(=O)O)NC(=O)CNC(=O)[C@H](CCCNC(=N)N)NC2=O)C(=O)NCCCC[C@@H]2NC(=O)[C@@H](Cc3ccccc3)NC(=O)[C@H](CC(=O)O)NC(=O)CNC(=O)[C@H](CCCNC(=N)N)NC2=O)C(=O)NCCCC[C@@H]2NC(=O)[C@@H](Cc3ccccc3)NC(=O)[C@H](CC(=O)O)NC(=O)CNC(=O)[C@H](CCCNC(=N)N)NC2=O)NC(=O)[C@@H](Cc2ccccc2)NC(=O)[C@H](CC(=O)O)NC(=O)CNC1=O [indium-111 labelled] | – | – | female athymic nu/nu mice, intestine | intravenous, 0.5 h | tissue uptake | 10.8 ± 1.46 %ID/g
CC(C)C[C@H](NC(=O)CN1CCN(CC(=O)O)CCN(CC(=O)O)CC1)C(=O)N[C@@H](CC(C)C)C(=O)N[C@@H](CC(C)C)C(=O)N[C@@H](CC(C)C)C(=O)N[C@@H](CCCNC(=N)N)C(=O)N[C@H](C(=O)N[C@@H](CCCCN)C(=O)N[C@@H](CCCNC(=N)N)C(N)=O)C(C)C [copper-64 labelled] | – | – | CD1 mouse, male, liver | intravenous, 15 min | tissue uptake | 13 ± 2 %ID/g

Some of these lines once more:
Structure (SMILES) | target or system | assay | test system | conditions | quantity | result
CCCC[C@H](NC(=O)COCCOCCNC(=O)CN1CCN(CC(=O)O)CCN(CC(=O)O)CC1)C(=O)N[C@H]1CC(=O)NCCCC[C@@H](C(N)=O)NC(=O)[C@H](Cc2c[nH]c3ccccc23)NC(=O)[C@H](CCCNC(=N)N)NC(=O)[C@@H](Cc2ccccc2)NC(=O)[C@H](Cc2c[nH]cn2)NC1=O [copper-64 labelled] | – | – | C57 mice, stomach | intravenous, 0.37 MBq, 24 h | tissue uptake | 0.32 ± 0.15 %ID/g
